Results collected from several papers.
Every numbered part comes from another study and shows a few of its results, in no order. Numbers after ± are the reported error.
Sequence of UniProt Q05940 (whole entry, looked up): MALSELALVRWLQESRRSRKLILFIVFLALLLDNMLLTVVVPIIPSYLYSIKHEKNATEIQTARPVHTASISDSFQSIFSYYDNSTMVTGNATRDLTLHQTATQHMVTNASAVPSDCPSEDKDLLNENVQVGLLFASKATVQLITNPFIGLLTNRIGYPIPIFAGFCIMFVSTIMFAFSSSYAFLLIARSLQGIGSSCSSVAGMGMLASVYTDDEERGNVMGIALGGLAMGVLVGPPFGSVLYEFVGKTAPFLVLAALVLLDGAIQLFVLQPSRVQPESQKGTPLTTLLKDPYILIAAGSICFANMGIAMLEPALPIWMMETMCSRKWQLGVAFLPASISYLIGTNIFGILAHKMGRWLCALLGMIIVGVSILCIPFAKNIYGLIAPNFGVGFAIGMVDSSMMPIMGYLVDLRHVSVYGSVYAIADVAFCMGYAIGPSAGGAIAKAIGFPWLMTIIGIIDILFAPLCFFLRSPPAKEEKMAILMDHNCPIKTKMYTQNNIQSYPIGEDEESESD

Sample 1
Species: human
Sample: microsomes or S9
Tested at: 2 µM
Time: 0.5 h
SMILES	remaining compound [%]
Cc1nc(C)c(C(=O)N2C3CCC2Cn2c(nnc2-c2ccccc2)C3)s1 (stereo not shown)	> 100
N#Cc1nccnc1OC1CCN(C(=O)c2ccc(N3CCOCC3)cc2)C1 (stereo not shown)	76.9
O=S(=O)(CCC1Cc2ccccc2C1)N1CCN(c2cccc(O)c2)CC1	21.7
CCOC(=O)c1c2ccc(N(CC)CC)cc2n2c(Cl)cccc12	52.7
CCn1nc(C)cc1S(=O)(=O)NC1CCOC2(CCOCC2)C1 (stereo not shown)	71.7

Sample 2
Observed: necroptosis
Mode: inhibitor
Technique: CCK-8
Cell line: L929
Species: mouse
Added: TNF-α
Compound	EC50
Cc1ccc(O)cc1Nc1ccnc2cc(-c3ccccn3)ccc12	8.41 µM
CC(C)(C)c1nc(-c2cccc(NS(=O)(=O)c3c(F)cccc3F)c2F)c(-c2ccnc(N)n2)s1	31 µM
N#Cc1c(Oc2ccc(F)c(NC(=O)Cc3cccc(C(F)(F)F)c3)c2)ccc2nc(NC(=O)C3CC3)sc12	3.86 µM

Sample 3
Compound: CC(=O)N[C@@H](Cc1c[nH]c2ccccc12)C(=O)N[C@@H](CCC(=O)C=[N+]=[N-])C(=O)OC(C)C
Sample: EL4 tumour
Dose: dose not given
Baseline: vehicle
test	test system	log2 fold change
refers to: hexose diphosphates	Mus musculus	0.346
refers to: 5-aminovalerate	mouse, EL4 tumour-bearing	0.336
refers to: 4-vinylphenol sulfate	mouse, EL4 tumour-bearing	-0.451
refers to: guanidinoacetate	mouse, EL4 tumour-bearing	0.371

Other studies, line by line
Structure (SMILES)	target	test	test system	endpoint	result
CCC1(O)CC2c3cc(OC)c(OC)cc3CCN2CC1CC(C)C (stereo not shown)	Synaptic vesicular amine transporter (SLC18A2, Homo sapiens, UniProt Q05940)	[3H]dopamine uptake, inhibitor	HEK293 hVMAT2 membranes	Ki	0.0195 ± 0.001 µM

Some of these lines once more (sample 2):
Compound	EC50
CC(C)(C)c1nc(-c2cccc(NS(=O)(=O)c3c(F)cccc3F)c2F)c(-c2ccnc(N)n2)s1	31 µM
N#Cc1c(Oc2ccc(F)c(NC(=O)Cc3cccc(C(F)(F)F)c3)c2)ccc2nc(NC(=O)C3CC3)sc12	3.86 µM
